Published values pooled from the literature.
± gives the spread as reported.
MAP3K20: Mitogen-activated protein kinase kinase kinase 20 (MAP3K20, Homo sapiens, UniProt Q9NYL2)
UniProt Q9NYL2, sequence (whole entry, looked up): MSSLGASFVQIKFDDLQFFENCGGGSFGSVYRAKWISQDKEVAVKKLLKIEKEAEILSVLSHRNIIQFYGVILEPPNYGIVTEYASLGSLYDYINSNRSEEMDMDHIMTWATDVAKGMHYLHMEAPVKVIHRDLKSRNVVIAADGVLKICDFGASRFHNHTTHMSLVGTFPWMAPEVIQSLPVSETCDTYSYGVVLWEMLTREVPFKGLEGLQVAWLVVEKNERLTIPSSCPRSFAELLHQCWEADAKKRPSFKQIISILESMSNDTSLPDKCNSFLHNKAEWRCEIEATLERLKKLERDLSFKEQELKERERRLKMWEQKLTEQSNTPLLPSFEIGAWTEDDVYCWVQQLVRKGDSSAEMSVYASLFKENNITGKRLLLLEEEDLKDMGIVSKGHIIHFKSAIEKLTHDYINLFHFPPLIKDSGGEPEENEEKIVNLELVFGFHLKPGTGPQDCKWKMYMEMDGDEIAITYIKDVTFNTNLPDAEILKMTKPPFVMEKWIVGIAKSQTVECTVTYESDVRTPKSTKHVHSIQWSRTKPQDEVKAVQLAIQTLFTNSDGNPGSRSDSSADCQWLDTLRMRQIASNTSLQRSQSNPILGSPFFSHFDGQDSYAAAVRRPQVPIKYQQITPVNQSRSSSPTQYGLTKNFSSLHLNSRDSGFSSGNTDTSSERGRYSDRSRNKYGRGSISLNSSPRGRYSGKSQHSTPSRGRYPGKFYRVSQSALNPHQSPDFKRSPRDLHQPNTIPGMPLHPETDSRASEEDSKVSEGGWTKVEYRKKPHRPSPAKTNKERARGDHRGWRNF
PRKCI: Protein kinase C iota type (PRKCI, Homo sapiens, UniProt P41743)
UniProt P41743, sequence (whole entry, looked up): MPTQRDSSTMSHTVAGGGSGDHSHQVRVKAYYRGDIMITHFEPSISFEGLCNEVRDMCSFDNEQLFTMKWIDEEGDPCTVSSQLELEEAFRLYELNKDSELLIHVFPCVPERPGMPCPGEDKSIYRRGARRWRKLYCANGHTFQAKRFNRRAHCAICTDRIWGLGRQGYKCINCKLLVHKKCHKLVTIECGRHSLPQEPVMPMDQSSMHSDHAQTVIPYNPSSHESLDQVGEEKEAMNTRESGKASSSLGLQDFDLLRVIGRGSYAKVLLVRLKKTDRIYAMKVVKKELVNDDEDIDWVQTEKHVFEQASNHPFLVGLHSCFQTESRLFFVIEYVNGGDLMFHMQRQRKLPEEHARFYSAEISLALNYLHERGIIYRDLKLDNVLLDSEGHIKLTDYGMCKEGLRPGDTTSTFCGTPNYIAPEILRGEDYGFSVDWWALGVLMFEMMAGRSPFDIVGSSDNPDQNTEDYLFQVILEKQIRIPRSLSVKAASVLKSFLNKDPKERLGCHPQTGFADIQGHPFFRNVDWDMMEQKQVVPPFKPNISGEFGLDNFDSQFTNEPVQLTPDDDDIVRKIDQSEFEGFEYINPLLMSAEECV
MAPKAPK5: MAP kinase-activated protein kinase 5 (MAPKAPK5, Homo sapiens, UniProt Q8IW41)
UniProt Q8IW41, sequence (whole entry, looked up): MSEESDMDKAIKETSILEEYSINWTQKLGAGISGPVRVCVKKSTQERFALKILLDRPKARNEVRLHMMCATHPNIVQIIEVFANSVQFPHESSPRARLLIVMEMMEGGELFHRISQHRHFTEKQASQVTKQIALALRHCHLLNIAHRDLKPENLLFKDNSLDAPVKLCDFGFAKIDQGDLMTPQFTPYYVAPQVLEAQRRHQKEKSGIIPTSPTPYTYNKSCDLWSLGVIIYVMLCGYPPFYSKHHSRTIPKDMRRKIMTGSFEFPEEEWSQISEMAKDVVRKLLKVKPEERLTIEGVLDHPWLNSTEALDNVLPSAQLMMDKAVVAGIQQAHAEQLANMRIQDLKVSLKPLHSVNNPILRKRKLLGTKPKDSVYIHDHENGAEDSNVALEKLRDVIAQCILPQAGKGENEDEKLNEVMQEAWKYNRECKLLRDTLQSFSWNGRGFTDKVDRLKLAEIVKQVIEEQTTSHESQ
UniProt P00690, sequence (whole entry, looked up): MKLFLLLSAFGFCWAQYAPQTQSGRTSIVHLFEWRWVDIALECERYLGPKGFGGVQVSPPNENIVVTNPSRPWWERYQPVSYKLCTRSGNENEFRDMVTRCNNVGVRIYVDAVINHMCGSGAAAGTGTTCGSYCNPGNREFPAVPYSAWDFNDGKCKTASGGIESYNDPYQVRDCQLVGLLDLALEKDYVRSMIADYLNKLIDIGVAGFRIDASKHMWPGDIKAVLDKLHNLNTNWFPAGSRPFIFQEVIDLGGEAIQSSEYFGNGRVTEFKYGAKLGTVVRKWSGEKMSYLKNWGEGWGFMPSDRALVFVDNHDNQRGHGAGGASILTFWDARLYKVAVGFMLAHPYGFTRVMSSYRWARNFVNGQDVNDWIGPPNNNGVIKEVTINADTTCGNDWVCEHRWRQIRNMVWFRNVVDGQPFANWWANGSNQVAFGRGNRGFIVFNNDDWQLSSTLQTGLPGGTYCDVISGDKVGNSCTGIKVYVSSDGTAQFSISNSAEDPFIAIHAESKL
UniProt P35916, sequence (whole entry, looked up): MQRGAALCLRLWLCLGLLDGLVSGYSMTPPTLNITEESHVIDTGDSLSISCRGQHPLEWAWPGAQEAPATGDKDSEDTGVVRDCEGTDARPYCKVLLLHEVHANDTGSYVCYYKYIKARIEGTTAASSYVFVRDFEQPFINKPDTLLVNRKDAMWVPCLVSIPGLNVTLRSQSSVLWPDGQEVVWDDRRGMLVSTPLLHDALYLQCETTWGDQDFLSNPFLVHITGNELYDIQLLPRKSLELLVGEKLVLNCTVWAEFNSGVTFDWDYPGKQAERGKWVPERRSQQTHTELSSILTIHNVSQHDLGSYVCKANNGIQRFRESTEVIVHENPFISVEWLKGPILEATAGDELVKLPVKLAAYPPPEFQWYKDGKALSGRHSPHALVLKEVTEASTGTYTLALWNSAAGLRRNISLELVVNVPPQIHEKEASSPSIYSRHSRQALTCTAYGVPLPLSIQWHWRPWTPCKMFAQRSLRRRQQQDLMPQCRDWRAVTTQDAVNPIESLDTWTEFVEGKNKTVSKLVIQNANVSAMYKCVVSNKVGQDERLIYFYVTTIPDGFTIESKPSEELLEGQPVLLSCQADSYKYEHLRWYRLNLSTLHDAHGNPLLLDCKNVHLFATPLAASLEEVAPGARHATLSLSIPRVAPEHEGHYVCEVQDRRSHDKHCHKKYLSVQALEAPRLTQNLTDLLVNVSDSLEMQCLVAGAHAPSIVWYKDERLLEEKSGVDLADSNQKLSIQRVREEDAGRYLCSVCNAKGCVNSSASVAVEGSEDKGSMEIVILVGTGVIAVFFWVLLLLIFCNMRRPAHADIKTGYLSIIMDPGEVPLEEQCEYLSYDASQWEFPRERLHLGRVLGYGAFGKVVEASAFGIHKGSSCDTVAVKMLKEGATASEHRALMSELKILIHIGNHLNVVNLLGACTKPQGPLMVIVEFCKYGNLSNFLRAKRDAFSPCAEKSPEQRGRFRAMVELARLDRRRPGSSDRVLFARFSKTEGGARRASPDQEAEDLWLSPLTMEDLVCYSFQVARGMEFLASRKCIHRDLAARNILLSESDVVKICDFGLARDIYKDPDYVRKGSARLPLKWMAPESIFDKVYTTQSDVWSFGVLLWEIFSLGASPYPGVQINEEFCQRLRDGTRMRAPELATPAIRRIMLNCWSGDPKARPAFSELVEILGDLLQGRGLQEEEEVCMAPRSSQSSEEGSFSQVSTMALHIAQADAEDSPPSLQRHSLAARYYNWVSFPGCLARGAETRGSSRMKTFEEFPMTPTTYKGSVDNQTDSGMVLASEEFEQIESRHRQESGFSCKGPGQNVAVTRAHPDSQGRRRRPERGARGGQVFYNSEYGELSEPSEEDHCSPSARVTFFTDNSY
UniProt P49935, sequence (whole entry, looked up): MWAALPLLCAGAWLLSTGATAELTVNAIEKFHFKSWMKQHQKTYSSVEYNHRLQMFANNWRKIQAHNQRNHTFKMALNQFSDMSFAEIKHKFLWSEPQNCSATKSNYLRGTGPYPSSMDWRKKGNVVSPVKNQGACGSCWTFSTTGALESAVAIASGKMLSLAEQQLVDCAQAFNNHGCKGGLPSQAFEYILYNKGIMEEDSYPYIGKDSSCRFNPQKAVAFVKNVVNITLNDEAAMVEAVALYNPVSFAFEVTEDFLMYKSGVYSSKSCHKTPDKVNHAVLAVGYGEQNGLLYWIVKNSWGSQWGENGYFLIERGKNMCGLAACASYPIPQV
UniProt P46154, sequence (whole entry, looked up): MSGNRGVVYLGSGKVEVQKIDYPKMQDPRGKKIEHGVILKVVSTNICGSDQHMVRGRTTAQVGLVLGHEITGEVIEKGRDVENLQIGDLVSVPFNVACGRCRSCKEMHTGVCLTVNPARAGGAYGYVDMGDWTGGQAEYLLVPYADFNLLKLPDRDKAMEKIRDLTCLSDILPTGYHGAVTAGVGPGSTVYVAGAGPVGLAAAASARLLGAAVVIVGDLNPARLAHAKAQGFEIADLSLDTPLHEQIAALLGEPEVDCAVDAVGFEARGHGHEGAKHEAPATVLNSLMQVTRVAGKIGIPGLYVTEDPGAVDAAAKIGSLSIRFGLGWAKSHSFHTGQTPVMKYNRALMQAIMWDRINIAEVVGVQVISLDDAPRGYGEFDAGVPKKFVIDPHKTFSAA
UniProt Q96S53, sequence (whole entry, looked up): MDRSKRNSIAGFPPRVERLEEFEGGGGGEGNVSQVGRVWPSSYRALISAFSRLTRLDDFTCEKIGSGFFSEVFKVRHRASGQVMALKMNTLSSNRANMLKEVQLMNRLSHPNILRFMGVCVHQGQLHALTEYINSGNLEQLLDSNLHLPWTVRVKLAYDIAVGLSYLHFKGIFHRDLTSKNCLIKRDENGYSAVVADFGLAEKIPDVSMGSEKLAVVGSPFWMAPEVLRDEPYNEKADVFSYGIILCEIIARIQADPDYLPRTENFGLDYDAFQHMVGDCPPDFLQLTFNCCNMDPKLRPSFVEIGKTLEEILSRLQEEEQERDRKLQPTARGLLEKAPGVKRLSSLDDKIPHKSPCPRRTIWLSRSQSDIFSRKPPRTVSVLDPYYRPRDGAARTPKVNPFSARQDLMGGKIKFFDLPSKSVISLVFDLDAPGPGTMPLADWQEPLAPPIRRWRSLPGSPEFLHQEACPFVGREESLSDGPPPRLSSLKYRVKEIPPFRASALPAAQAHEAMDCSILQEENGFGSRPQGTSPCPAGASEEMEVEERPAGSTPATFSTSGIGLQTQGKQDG

| Structure (SMILES) | target | test | test system | conditions | scale | remaining activity [%] |
| --- | --- | --- | --- | --- | --- | --- |
| CC(C)OCCn1c(=S)[nH]c(=O)c2[nH]ccc21 | Myeloperoxidase (MPO, Homo sapiens, UniProt P05164) | LDL lipid peroxidation, inhibitor, cholesteryl ester hydroperoxide | – | 0.3704 µM | – | 57.4 |
| c1cnc2ccc(Nc3nc(NC4CC4)c4nc[nH]c4n3)cc2c1 | Macrophage-stimulating protein receptor (MST1R, Homo sapiens, UniProt Q04912) | kinase activity, inhibitor, SelectScreen kinase profiling | – | 1 µM | reference: control | 91 |
| Cc1cccc(C)c1C(=O)OCC(=O)[C@H](CCCCN)NC(=O)[C@H](CCCNC(=N)N)NC(=O)OCc1ccccc1 | Pro-cathepsin H (Ctsh, Mus musculus, UniProt P49935) | inhibitor | – | 1 µM, with: AMC fluorogenic substrate | reference: untreated | 95 |
| COc1ccc(F)cc1C(=O)NCc1ccc(-c2nn([C@@H](C)C(F)(F)F)c(N)c2C(N)=O)cc1 | MAP3K20 | kinase activity, inhibitor, HotSpot radiometric | – | 100 nM, with: ATP 10 µM | – | 93.3 ± 0.5 |
| COc1cc(Nc2ncc3c(n2)-c2ccc(Cl)cc2C(c2c(F)cccc2OC)=NC3)ccc1C(=O)O | FES | kinase activity | – | 1 µM | – | 87 |
| CCCCCCCCCCCCCCNC(=O)/C=C/c1ccc(O)c(O)c1 | Pancreatic alpha-amylase (AMY2, Sus scrofa, UniProt P00690) | enzyme activity | – | 20 µM, with: α-glucosidase present | – | 56.2 ± 3.67 |
| CC(=O)ON=C1C=CC(=C(C#N)c2ccccc2)C=C1 | Glycogen synthase kinase 3 (Plasmodium falciparum, UniProt O77344) | enzyme activity, inhibitor, ADP-Glo | – | 2 µM, about MIC/10, with: ATP 10 µM | – | 83 |
| COc1cc(N2CCN(C)CC2)ccc1Nc1nc(N)n(C(=O)NCc2c(Cl)cccc2Cl)n1 | Serine/threonine-protein kinase PRP4 homolog (PRPF4B, Homo sapiens, UniProt Q13523) | enzyme activity | – | 10 µM | reference: control | 2.2 |
| OC[C@H]1OC(O)[C@H](O)[C@@H](O)[C@@H]1O (stereo partly drawn) | uncharacterized protein (Paenibacillus xylanivorans, UniProt A0A0N0C5Q2) | enzyme activity, product inhibitor | – | 900000 µM, pH 4.5, 40 °C | – | > 50 |
| C/C(CC(O)(C(F)(F)F)C(F)(F)F)=N/Nc1ccc([N+](=O)[O-])cc1[N+](=O)[O-] | fdhA (Pseudomonas putida, UniProt P46154) | – | – | concentration not given, no demethylase | – | > 80 |
| CCCN1C(=O)COc2ccc(Nc3ccccc3Br)cc21 | Beclin 1-associated autophagy-related key regulator, with Beclin 1 (ATG14, Homo sapiens, UniProt Q6ZNE5) | NanoBRET | HEK293T | 100 µM, 24 h | reference: DMSO | 72.9 ± 7.2 |
| C[C@@H](Oc1ccc(S(C)(=O)=O)cc1C(=O)N1C[C@@H]2C[C@]2(c2cc(C(F)(F)F)on2)C1)C(F)(F)F | Sodium- and chloride-dependent glycine transporter 1 (SLC6A9, Homo sapiens, UniProt P48067) | glycine uptake, inhibitor, [3H]glycine uptake | – | 0.001 µM, log concentration 1, with: [3H]glycine, 3.5 mg/mL methyl-β-cyclodextrin | reference: no inhibitor | 87 |
| O=C(NC1CCC1)c1ccc2nc(-c3cccc(NS(=O)(=O)NCCN4CCCCC4)c3)cn2c1 | PRKCI | enzyme activity | – | 10 µM | – | 100 |
| COc1cc(F)ccc1-c1ncnc(Nc2cccc(C[S@](C)(=N)=O)c2)n1 | MAPKAPK5 | kinase activity | – | 10 µM, with: 10 µM ATP | – | 93 |
| O=C1NC(=O)/C(=C/c2ccc(-c3ccc(F)cc3O)o2)S1 | Misshapen-like kinase 1 (MINK1, Homo sapiens, UniProt Q8N4C8) | enzyme activity | – | 10 µM | – | 24 |
| CNc1ncc2c(/C=C/C(=O)N3CCC(OC)CC3)nn(Cc3cccc(C(F)(F)F)c3)c2n1 | MAPKAPK5 | kinase activity, inhibitor | – | 1 µM | reference: untreated control | 121 |
| COc1cc(-c2cncc3c2CN(C)Cc2cc(N4CCNCC4)ccc2-3)cc(OC)c1OC | PRKCI | kinase activity | – | 1 µM, human enzyme, with: ATP 10 µM | reference: DMSO control | 105 |
| COc1cc(N2CCN(C)CC2)ccc1Nc1nc(N)n(C(=S)NCc2c(Cl)cccc2Cl)n1 | MAPKAPK5 | enzyme activity | – | 10 µM | reference: control | 16 |
| Cc1cc(Nc2cc(N3CCN(C)CC3)nc(Sc3ccc(NC(=O)C4CC4)cc3)n2)[nH]n1 | Vascular endothelial growth factor receptor 3 (FLT4, Homo sapiens, UniProt P35916) | kinase activity, KinaseProfiler | – | 0.03 µM, species human | reference: control | 86 |
| C=CC(=O)N1CCC([C@@H]2CCNc3c(C(N)=O)c(-c4ccc(Oc5ccccc5)cc4)nn32)CC1 | MAP3K20 | kinase activity, inhibitor, HotSpot radiometric | – | 100 nM, with: ATP 10 µM | – | 100.6 ± 0.5 |
| NC(=O)c1ncn([C@@H]2O[C@H](CO[P@@](=O)(O)O[P@](=O)(O)OP(=O)(O)O)[C@@H](O)[C@H]2O)n1 | Non-structural polyprotein pORF1, RNA-dependent RNA polymerase (Hepatitis E virus genotype 1, UniProt P33424) | polymerase activity, inhibitor, colorimetric | – | 14 µM | reference: untreated | 84.2 |
| NC/C(=C\F)COc1cccc(Cn2c(=S)[nH]c(=O)c3[nH]cnc32)c1 | Peroxidasin homolog (PXDN, Homo sapiens, UniProt Q92626) | Amplex UltraRed | – | 1.25 µM | reference: control | 95.8 |
| O=C(O)c1ccc(Nc2ncc3c(n2)-c2ccc(Cl)cc2C(c2c(F)cccc2F)=NC3)cc1 | CaMKIIδ(h) | kinase activity | – | 1 µM | – | 123 |
| C=CC(=O)N1CCC[C@@H](n2nc(-c3ccc(Oc4ccccc4)cc3)c3c(N)ncnc32)C1 | Dual specificity testis-specific protein kinase 2 (TESK2, Homo sapiens, UniProt Q96S53) | – | – | 0.1 µM | – | 85.8 |

Some of these lines once more:
| Structure (SMILES) | target | test | test system | conditions | scale | remaining activity [%] |
| --- | --- | --- | --- | --- | --- | --- |
| c1cnc2ccc(Nc3nc(NC4CC4)c4nc[nH]c4n3)cc2c1 | Macrophage-stimulating protein receptor (MST1R, Homo sapiens, UniProt Q04912) | kinase activity, inhibitor, SelectScreen kinase profiling | – | 1 µM | reference: control | 91 |
| Cc1cccc(C)c1C(=O)OCC(=O)[C@H](CCCCN)NC(=O)[C@H](CCCNC(=N)N)NC(=O)OCc1ccccc1 | Pro-cathepsin H (Ctsh, Mus musculus, UniProt P49935) | inhibitor | – | 1 µM, with: AMC fluorogenic substrate | reference: untreated | 95 |
